Results pooled from the literature.
Values joined by “and” are separate records of one study, mostly repeats; a detail may differ. Numbers after ± are the reported error.
rep main protease: Replicase polyprotein 1ab, main protease (rep, Severe acute respiratory syndrome coronavirus 2, UniProt P0DTD1)

Structure (SMILES) | target or system | test | test system | conditions | scale | quantity | result
CCc1ccc(Sc2cc(C(=O)NCCCN3CCC(C)CC3)c3ccccc3n2)cc1 | SARS-CoV-2 | cytopathic effect | USA_WA1/2020 | round 1, 5-point |  | maximum response | 54.1%
CN1CCN(CCc2ccc(Cl)c(Cl)c2)CC1 | SARS-CoV-2 | viral replication | Vero E6 | inactive set pIC50 4 |  | IC50 | > 10 µM
CCCN(CCC)CCCNC(=O)C1CCCN(Cc2nc(-c3ccc(Cl)cc3)oc2C)C1 (stereo not shown) | SARS-CoV-2 | cytopathic effect, cell-based CPE | USA_WA1/2020 | round 2, 5-point dilution |  | AC50 | 3.98 µM
Cc1nn(-c2ccc(Cl)cc2)c2c1C(c1ccc(Cl)c(Cl)c1)C(C#N)=C(N)O2 (stereo not shown) | SARS-CoV-2 |  | Vero | 1 µM |  | viral titre | 1.02e+06 IU/mL
CCC(CC)COC(=O)[C@H](C)N[P@](=O)(OC[C@H]1O[C@@](C#N)(c2ccc3c(N)ncnn23)[C@H](O)[C@@H]1O)Oc1ccccc1 | SARS-CoV-2 | viral replication, high-content imaging screen |  | cell-based |  | EC50 | 3.12 µM
O=C(/C=C/c1ccc(O)c(O)c1/C=C/c1ccc(O)c(O)c1)O[C@H](Cc1ccc(O)c(O)c1)C(=O)O | SARS-CoV-2 | cytopathic effect | Vero E6 | 1.562 µM, replicate run |  | mean inhibition | 0%
Cc1nn(-c2ccc(Cl)cc2)c2c1C(c1c(Cl)cccc1Cl)C(C#N)=C(N)O2 (stereo not shown) | SARS-CoV-2 |  | Vero C1008 | 10 µM | relative to: positive control | viral titre log reduction | 0.269 log10
Cc1ccccc1N1CCN(C2CCc3ccccc3C2)CC1 (stereo not shown) | SARS-CoV-2 | viral replication | Vero E6, USA-WA1/2020 | 2.5 µM |  | inhibition | 42.8%
CN1CC[C@@]23CCCC[C@@H]2[C@@H]1Cc1ccc(O)cc13 | SARS-CoV-2 | viral replication, RT-qPCR | A549 expressing ACE2 |  |  | IC50 | > 10 µM
Nc1ncnc2c([C@@H]3N[C@H](CO)[C@@H](O)[C@H]3O)c[nH]c12 | Marburg virus | viral replication, antibody staining | HeLa, Musoke | 25 µM, 12 h |  | infected cells | 1.2%
CCn1cc(-c2ccnc3[nH]c(-c4cccc(CN(C)C)c4)cc23)c(-c2ccc(NC(=O)N(C)C)cc2)n1 | SARS-CoV-2 | viral replication, GFP plate reader screen |  | cell-based |  | EC50 | > 100 µM
C[C@@H]1CS/C(=N\NC(=O)C(=O)[C@H](NC(=O)C2CCCCCC2)C2CCOCC2)N1C | SARS-CoV-2 | viral replication | 293T-ACE2, USA-WA1/2020 |  |  | EC90 | 0.749 µM
O=C1[C@H](CC[C@H](O)c2ccc(F)cc2)[C@@H](c2ccc(O)cc2)N1c1ccc(F)cc1 | SARS-CoV-2 | viral replication | Huh-7 |  |  | IC50 | > 2 µM
Fc1ccc(-n2cc(CCCCN3CCC4(CC3)OCc3ccccc34)c3ccccc32)cc1 | SARS-CoV-2 | viral replication, anti-nucleoprotein immunostaining | Vero E6 |  |  | IC50 | 1.02 µM
Cn1cnc(Cn2c(=O)[nH]/c(=N\c3cc4cn(C)nc4cc3Cl)n(Cc3cc(F)c(F)cc3F)c2=O)n1 |  |  | human, mild renal impairment, plasma | oral, 375 mg single dose |  | Cmax | 20500 ng/mL
Cc1nn(-c2ccc(Cl)cc2)c2c1C(c1ccc(-c3ccccc3)cc1)C(C#N)=C(N)O2 (stereo not shown) | SARS-CoV-2 |  | Vero C1008 | 1 µM | relative to: positive control | viral titre log reduction | 0.0501 log10
COc1cc2c(cc1OC)CN(CCc1ccc(NC(=O)c3cccc4c(=O)c5cccc(OC)c5[nH]c34)cc1)CC2 | SARS-CoV-2 | viral replication, RT-qPCR | A549-ACE2 |  |  | IC50 | 6.76 µM
COc1ccc(C[C@@H]2c3cc(Oc4cc(C[C@@H]5c6cc(O)c(OC)cc6CCN5C)ccc4O)c(OC)cc3CCN2C)cc1 | SARS-CoV-2 | viral replication | Vero E6 | 12.5 µM | relative to: mean of replicates | CPE inhibition | 0%
COc1ccc2c(c1)N(C[C@H](C)CN(C)C)c1ccccc1S2 | SARS-CoV-2 | viral replication, high-content imaging screen | BetaCov/Belgium/GHB-03021/2020 | cell-based |  | EC50 | > 50.1 µM
N#CC[C@H](C1CCCC1)n1cc(-c2ncnc3[nH]ccc23)cn1 | SARS-CoV-2 |  |  | concentration not given, Paris laboratory |  | viral replication inhibition | inactive
COc1ccc(-c2cn3c(n2)sc2cc(C(=O)NCCCN4CCCCCC4)ccc23)cc1 | SARS-CoV-2 | cytopathic effect | USA_WA1/2020 | retest, 8-point, duplicates |  | maximum response | 68.5%
O=C(Nc1cnccc1Cl)N1CCN(Cc2ccc3c(c2)OC(F)(F)O3)CC1 | SARS-CoV-2 | viral replication | Vero E6, USA-WA1/2020 | 2.5 µM |  | inhibition | 40.8%
CCc1cc(C(N)=S)ccn1 | SARS-CoV-2 | viral replication | Huh-7 |  |  | IC50 | > 2 µM
O=C(O[C@@H]1Cc2c(O)cc(O)cc2O[C@@H]1c1cc(O)c(O)c(O)c1)c1cc(O)c(O)c(O)c1 | SARS-CoV-2 | viral replication | Vero E6 | 6.25 µM | relative to: mean of replicates | CPE inhibition | 0%
CNC(=O)[C@@H](NC(=O)[C@H](CCCc1ccccc1)[C@H](C)N(O)C=O)C(C)(C)C | rep main protease | reporter gene (Gaussia luciferase), inhibitor |  | 20 µM |  | inhibition | 0.811%

Structure (SMILES) | target or system | test | test system | conditions | scale | quantity | result
Cc1nn(-c2ccc(Cl)cc2)c2c1C(c1ccc(F)cc1F)C(C#N)=C(N)O2 (stereo not shown) | SARS-CoV-2 |  | Vero C1008 | 1 µM | relative to: positive control | viral titre log reduction | 0.0033 log10
CCCCCCC(C)(C)c1cc(O)c2c(c1)OC(C)(C)[C@@H]1CC=C(C(=O)O)C[C@@H]21 | SARS-CoV-2 | viral replication, GFP plate reader screen |  | cell-based |  | EC50 | > 100 µM
C[C@@]12C[C@@]3(O)O[C@@H](O1)[C@]1(COC(=O)c4ccc(O)cc4)[C@H]3C[C@@]12O[C@@H]1O[C@H](COC(=O)c2ccccc2)[C@@H](O)[C@H](O)[C@H]1O | rep main protease | reporter gene (Gaussia luciferase), inhibitor |  | 20 µM |  | inhibition | 1.32%
COc1ccc(N2CCN(CCCNC(=O)c3cc(Nc4ccc(OC)cc4OC)nc4ccccc34)CC2)cc1 | SARS-CoV-2 | cytopathic effect, cell-based CPE | USA_WA1/2020 |  |  | AC50 | 14.1 µM
CCC(CC)COC(=O)[C@H](C)N[P@](=O)(OC[C@H]1O[C@@](C#N)(c2ccc3c(N)ncnn23)[C@H](O)[C@@H]1O)Oc1ccccc1 | SARS-CoV-2 | RT-qPCR, item: viral RNA | Vero | 10 µM | higher means less virus | Ct value | 26.8 cycles
CC(Nc1nc(N2CCN(CCN)CC2)nc2ccccc12)c1ccccc1 (stereo not shown) | SARS-CoV-2 | cytopathic effect, cell-based CPE | USA_WA1/2020 | round 2, 5-point dilution |  | maximal response | 56.5%
O=c1nc([C@@H]2CCCN2)[nH]c2c1oc1ccc(Cl)cc12 | SARS-CoV-2 |  |  | concentration not given, Paris laboratory |  | viral replication inhibition | inactive
c1ccc(C(c2ccccc2)N2CCN(CCCC3(c4ccccc4)OCCO3)CC2)cc1 | SARS-CoV-2 | viral replication, GFP plate reader screen |  | cell-based |  | EC50 | > 20 µM
CC(C)=CCc1c(O)ccc(C(=O)/C=C/c2ccc(O)cc2)c1O | SARS-CoV-2 | viral replication | Vero E6 | 50 µM |  | CPE inhibition | 25%
CCc1ccc(CCOc2ccc(CC3SC(=O)NC3=O)cc2)nc1 (stereo not shown) | SARS-CoV-2 |  | Vero E6 | concentration not given, NYC laboratory |  | viral replication inhibition | inactive
COC(=O)N[C@H](C(=O)N1CCC[C@H]1c1nc(-c2ccc(-c3ccc(-c4c[nH]c([C@@H]5CCCN5C(=O)[C@@H](NC(=O)OC)C(C)C)n4)cc3)cc2)c[nH]1)C(C)C | SARS-CoV-2 | viral replication, high-content imaging screen |  | cell-based |  | EC50 | > 100 µM
CN1CC[C@@H](NC(=O)Nc2ccc(C#N)cc2)C[C@@H]1c1nc2ccccc2[nH]1 | SARS-CoV-2 | viral replication | Huh-7 |  |  | IC50 | > 2 µM
Cc1cccc(N2CCN(C(=O)C3CCN(Cc4nc(-c5ccc(Cl)cc5)oc4C)CC3)CC2)c1C | SARS-CoV-2 | cytopathic effect, cell-based CPE | USA_WA1/2020 | round 1, 5-point dilution |  | AC50 | 12.6 µM
CC(C)(C)[C@H](NC(=O)C(F)(F)F)C(=O)N1C[C@H]2[C@@H]([C@H]1C(=O)N[C@H](C#N)C[C@@H]1CCNC1=O)C2(C)C | SARS-CoV-2 | viral replication | Vero E6 | 1 µM |  | inhibition | 88.1% and 98.8% and 106% and 104% and 88.5% and 119%
CCN(CC)CCCNC(=O)CSc1c2c(nc3cc(Cl)ccc13)CCCC2 | SARS-CoV-2 | cytopathic effect, cell-based CPE | USA_WA1/2020 | round 2, 5-point dilution |  | AC50 | 14.1 µM
FCOC(C(F)(F)F)C(F)(F)F | SARS-CoV-2 | viral replication | Huh-7 |  |  | IC50 | > 2 µM
CN(C)C(=O)c1cc2cnc(Nc3ccc(N4CCNCC4)cn3)nc2n1C1CCCC1 | SARS-CoV-2 | viral replication, high-content imaging screen |  | cell-based |  | EC50 | > 100 µM
CS(=O)(=O)c1ccc(C2=C(c3ccccc3)C(=O)OC2)cc1 | SARS-CoV-2 | viral replication | Huh-7 |  |  | IC50 | > 2 µM
CC(C)(C)NCc1ccc(Nc2ccnc3cc(Cl)ccc23)cc1O | SARS-CoV-2 | cytopathic effect | USA_WA1/2020 | retest, 8-point, duplicates |  | efficacy | 54.9%
Cc1ccc(NS(=O)(=O)c2cccc(C(=O)NC3CCN(c4ncnc5[nH]cnc45)CC3)c2)cc1 | SARS-CoV-2 |  | A549-ACE2, Wuhan-Hu-1 | 0.2743 µM | relative to: untreated | relative infection | 89.2%
O=C(O)/C(Cc1ccccc1[N+](=O)[O-])=N\Nc1nc(-c2ccc(Cl)c(Cl)c2)cs1 | SARS-CoV-2 |  |  | concentration not given, Paris laboratory |  | viral replication inhibition | inactive
CC[C@H](C)[C@H](NC(=O)[C@H](CC(C)C)NC(=O)[C@H](Cc1c[nH]c2ccccc12)NC(=O)[C@H](CCC(N)=O)NC(=O)[C@@H](NC(=O)[C@H](Cc1ccccc1)NC(=O)[C@H](C)NC(=O)[C@H](CCCCNC(=O)COCCOCCNC(=O)COCCOCCNC(=O)CC[C@H](NC(=O)CCCCCCCCCCCCCCCCCCC(=O)O)C(=O)O)NC(=O)[C@H](CCC(N)=O)NC(=O)[C@H](C)NC(=O)[C@@H](NC(=O)[C@H](CCCCN)NC(=O)[C@H](CC(=O)O)NC(=O)[C@H](CC(C)C)NC(=O)C(C)(C)NC(=O)[C@@H](NC(=O)[C@H](CO)NC(=O)[C@H](Cc1ccc(O)cc1)NC(=O)[C@H](CC(=O)O)NC(=O)[C@H](CO)NC(=O)[C@@H](NC(=O)[C@H](Cc1ccccc1)NC(=O)[C@@H](NC(=O)CNC(=O)[C@H](CCC(=O)O)NC(=O)C(C)(C)NC(=O)[C@@H](N)Cc1ccc(O)cc1)[C@@H](C)O)[C@@H](C)O)[C@@H](C)CC)[C@@H](C)CC)C(C)C)C(=O)N[C@@H](C)C(=O)NCC(=O)NCC(=O)N1CCC[C@H]1C(=O)N[C@@H](CO)C(=O)N[C@@H](CO)C(=O)NCC(=O)N[C@@H](C)C(=O)N1CCC[C@H]1C(=O)N1CCC[C@H]1C(=O)N1CCC[C@H]1C(=O)N[C@@H](CO)C(N)=O |  |  | healthy subjects, single ascending dose | 2.5 mg, day 29 |  | serum ALT | 19 ± 7.6 U/L
CC(=O)NC1(c2ccccc2)CCN(CC[C@H](CN(C)C(=O)c2ccccc2)c2ccc(Cl)c(Cl)c2)CC1 | SARS-CoV-2 | viral replication, GFP plate reader screen | BetaCov/Belgium/GHB-03021/2020 | cell-based |  | EC50 | > 100 µM
N=C(N)c1ccc2cc(OC(=O)c3ccc(N=C(N)N)cc3)ccc2c1 | SARS-CoV-2 |  | Vero E6 | concentration not given, NYC laboratory |  | viral replication inhibition | inactive

A few entries again:
Structure (SMILES) | target or system | test | test system | conditions | scale | quantity | result
CCCCCCC(C)(C)c1cc(O)c2c(c1)OC(C)(C)[C@@H]1CC=C(C(=O)O)C[C@@H]21 | SARS-CoV-2 | viral replication, GFP plate reader screen |  | cell-based |  | EC50 | > 100 µM
C[C@@]12C[C@@]3(O)O[C@@H](O1)[C@]1(COC(=O)c4ccc(O)cc4)[C@H]3C[C@@]12O[C@@H]1O[C@H](COC(=O)c2ccccc2)[C@@H](O)[C@H](O)[C@H]1O | rep main protease | reporter gene (Gaussia luciferase), inhibitor |  | 20 µM |  | inhibition | 1.32%
COc1ccc(N2CCN(CCCNC(=O)c3cc(Nc4ccc(OC)cc4OC)nc4ccccc34)CC2)cc1 | SARS-CoV-2 | cytopathic effect, cell-based CPE | USA_WA1/2020 |  |  | AC50 | 14.1 µM
CCC(CC)COC(=O)[C@H](C)N[P@](=O)(OC[C@H]1O[C@@](C#N)(c2ccc3c(N)ncnn23)[C@H](O)[C@@H]1O)Oc1ccccc1 | SARS-CoV-2 | RT-qPCR, item: viral RNA | Vero | 10 µM | higher means less virus | Ct value | 26.8 cycles
